Results pooled from the literature.
Each numbered part is a random draw from the data of one study; scales do not carry over between parts.
Chain of UniProt Q13237 (whole entry, looked up): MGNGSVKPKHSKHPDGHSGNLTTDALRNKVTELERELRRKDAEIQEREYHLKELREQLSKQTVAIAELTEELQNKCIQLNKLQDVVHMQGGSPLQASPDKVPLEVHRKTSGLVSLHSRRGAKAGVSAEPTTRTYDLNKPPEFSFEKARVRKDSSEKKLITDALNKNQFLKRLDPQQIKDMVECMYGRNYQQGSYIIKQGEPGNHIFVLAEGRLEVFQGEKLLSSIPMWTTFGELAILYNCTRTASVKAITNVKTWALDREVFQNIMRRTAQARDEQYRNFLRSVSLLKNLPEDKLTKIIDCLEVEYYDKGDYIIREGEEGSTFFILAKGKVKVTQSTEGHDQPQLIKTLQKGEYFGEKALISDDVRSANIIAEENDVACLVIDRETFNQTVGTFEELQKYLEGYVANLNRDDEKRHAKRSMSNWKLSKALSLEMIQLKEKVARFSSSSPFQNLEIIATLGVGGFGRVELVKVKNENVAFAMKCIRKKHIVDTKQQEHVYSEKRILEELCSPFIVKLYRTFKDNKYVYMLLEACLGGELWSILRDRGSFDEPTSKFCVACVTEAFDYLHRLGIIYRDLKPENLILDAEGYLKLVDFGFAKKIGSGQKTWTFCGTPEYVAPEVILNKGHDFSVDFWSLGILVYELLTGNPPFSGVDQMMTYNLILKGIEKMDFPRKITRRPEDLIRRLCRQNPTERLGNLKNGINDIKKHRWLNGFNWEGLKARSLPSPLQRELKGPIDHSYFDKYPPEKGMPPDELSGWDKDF
Chain of UniProt P25098 (whole entry, looked up): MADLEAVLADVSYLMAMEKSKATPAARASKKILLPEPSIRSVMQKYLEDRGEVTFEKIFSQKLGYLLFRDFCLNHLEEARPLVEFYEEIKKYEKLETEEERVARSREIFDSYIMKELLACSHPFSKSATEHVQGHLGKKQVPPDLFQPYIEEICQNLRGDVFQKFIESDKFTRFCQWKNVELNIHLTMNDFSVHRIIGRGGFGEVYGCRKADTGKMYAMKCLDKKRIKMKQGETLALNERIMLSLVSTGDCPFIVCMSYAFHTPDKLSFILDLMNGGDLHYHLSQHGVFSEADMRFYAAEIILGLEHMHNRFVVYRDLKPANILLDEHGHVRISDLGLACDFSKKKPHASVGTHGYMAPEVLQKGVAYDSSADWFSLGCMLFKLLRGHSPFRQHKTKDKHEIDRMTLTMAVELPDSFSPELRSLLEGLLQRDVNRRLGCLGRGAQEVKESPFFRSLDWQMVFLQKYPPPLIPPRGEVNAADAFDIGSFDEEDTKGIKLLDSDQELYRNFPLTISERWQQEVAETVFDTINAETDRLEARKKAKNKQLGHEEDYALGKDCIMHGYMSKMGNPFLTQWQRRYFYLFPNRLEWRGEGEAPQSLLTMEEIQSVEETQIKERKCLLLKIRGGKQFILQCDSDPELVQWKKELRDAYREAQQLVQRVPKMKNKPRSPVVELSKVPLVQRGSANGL
Chain of UniProt Q05655 (whole entry, looked up): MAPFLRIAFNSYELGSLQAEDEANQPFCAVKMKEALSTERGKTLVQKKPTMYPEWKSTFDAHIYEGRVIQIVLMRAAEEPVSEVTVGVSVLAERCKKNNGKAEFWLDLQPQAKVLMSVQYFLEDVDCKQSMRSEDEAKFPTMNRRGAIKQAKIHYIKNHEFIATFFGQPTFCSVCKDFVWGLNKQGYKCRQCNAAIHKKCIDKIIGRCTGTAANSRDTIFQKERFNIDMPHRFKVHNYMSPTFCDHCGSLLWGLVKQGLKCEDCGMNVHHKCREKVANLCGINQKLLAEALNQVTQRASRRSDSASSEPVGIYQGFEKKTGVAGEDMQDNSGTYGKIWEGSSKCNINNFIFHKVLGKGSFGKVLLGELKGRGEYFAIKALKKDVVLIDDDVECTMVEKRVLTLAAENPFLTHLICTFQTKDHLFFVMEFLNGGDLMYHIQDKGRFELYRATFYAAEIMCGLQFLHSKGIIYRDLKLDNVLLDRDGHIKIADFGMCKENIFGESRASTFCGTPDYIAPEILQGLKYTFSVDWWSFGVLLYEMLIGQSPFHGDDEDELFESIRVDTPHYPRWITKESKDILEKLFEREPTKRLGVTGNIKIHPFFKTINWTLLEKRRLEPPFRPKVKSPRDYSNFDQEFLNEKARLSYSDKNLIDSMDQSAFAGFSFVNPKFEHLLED
Chain of UniProt Q9NRH2 (whole entry, looked up): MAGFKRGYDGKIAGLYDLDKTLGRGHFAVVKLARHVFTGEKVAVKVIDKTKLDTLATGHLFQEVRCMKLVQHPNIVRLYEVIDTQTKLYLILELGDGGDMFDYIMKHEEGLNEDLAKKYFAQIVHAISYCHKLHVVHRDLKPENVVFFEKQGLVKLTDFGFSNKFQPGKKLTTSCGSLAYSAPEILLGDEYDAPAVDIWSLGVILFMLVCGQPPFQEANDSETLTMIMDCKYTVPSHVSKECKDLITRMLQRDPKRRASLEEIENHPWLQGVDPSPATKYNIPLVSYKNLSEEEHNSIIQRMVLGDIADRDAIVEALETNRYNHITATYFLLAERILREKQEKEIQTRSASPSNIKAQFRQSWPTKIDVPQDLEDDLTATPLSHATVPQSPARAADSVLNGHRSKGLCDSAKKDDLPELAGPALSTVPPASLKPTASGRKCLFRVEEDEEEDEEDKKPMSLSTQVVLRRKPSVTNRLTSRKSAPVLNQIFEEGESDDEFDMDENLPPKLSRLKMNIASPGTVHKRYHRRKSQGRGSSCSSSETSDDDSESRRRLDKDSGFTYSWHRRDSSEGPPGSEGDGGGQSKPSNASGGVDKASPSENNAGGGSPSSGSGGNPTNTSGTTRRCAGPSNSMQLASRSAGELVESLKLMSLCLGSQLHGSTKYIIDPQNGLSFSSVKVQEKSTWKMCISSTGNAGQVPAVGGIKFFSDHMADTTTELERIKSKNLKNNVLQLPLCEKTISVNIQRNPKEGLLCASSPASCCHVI
Chain of UniProt O60331 (whole entry, looked up): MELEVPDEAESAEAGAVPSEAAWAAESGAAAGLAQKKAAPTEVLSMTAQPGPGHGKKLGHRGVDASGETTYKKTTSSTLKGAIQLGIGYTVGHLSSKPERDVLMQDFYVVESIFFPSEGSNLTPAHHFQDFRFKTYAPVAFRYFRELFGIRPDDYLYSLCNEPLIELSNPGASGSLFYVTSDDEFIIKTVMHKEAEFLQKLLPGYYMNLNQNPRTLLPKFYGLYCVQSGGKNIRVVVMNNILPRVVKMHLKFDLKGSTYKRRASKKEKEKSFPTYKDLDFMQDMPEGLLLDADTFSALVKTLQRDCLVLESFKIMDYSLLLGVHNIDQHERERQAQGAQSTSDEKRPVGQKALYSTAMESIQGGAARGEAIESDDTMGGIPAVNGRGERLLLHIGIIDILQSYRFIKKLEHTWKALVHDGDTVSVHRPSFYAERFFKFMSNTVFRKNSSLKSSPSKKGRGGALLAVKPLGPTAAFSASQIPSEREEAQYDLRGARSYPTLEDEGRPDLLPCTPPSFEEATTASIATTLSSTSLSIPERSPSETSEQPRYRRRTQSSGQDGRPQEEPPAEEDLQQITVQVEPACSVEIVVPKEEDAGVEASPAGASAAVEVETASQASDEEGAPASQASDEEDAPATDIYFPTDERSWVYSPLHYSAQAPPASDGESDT
Chain of UniProt P28482 (whole entry, looked up): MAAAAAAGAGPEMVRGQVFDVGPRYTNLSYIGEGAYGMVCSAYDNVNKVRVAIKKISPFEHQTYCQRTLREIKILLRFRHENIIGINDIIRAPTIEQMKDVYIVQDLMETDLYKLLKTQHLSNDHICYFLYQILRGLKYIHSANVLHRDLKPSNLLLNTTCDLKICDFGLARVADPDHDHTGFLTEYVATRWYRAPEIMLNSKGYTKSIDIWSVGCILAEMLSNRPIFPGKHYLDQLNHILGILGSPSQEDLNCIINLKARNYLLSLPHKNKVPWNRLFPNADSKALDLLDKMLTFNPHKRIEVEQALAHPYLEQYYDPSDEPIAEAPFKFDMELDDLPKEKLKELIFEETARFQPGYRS

Sample 1 — read-out: enzyme activity; action: inhibitor; tested at: 10 µM; endpoint: inhibition
Target: Calcium/calmodulin-dependent protein kinase type II subunit alpha (CAMK2A, Homo sapiens, UniProt Q9UQM7)
Chain of UniProt Q9UQM7 (whole entry, looked up): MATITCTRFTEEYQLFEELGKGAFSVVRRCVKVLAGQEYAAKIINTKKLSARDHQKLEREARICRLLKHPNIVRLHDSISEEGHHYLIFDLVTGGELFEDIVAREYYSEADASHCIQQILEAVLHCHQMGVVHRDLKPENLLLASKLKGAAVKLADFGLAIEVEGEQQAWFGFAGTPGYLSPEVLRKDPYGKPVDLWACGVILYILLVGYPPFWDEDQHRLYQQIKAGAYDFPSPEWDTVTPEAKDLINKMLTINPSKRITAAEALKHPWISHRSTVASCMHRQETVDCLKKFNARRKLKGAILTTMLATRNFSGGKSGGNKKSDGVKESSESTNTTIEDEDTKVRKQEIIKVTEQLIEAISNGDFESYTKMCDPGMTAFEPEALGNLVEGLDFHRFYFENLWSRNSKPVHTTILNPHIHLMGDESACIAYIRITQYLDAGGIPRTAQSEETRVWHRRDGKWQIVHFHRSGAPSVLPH
SMILES = O=C(O)[C@@H]1C[C@H](O)CN1; result = -13%
SMILES = C[C@H]1[C@H](C)CC[C@]2(C(=O)O[C@@H]3O[C@H](CO[C@@H]4O[C@H](CO)[C@@H](O[C@@H]5O[C@@H](C)[C@H](O)[C@@H](O)[C@H]5O)[C@H](O)[C@H]4O)[C@@H](O)[C@H](O)[C@H]3O)CC[C@]3(C)C(=CC[C@@H]4[C@@]5(C)C[C@@H](O)[C@H](O)[C@@](C)(CO)[C@@H]5[C@H](O)C[C@]43C)[C@H]12; result = 17%
SMILES = c1ccc(Nc2ccccc2)cc1; result = 19%
SMILES = O=C(O)C(=O)Cc1ccccc1; result = -13%
SMILES = COc1cc(/C=C/C(=O)O[C@@H]2C[C@@](O)(C(=O)O)C[C@@H](O)[C@@H]2O)ccc1O; result = 39%
SMILES = CC(C)=CCc1c(O)cc(O)c2c(=O)cc(-c3ccc(O)cc3)oc12; result = 30%
SMILES = CC(=O)c1ccc(C)cc1C; result = 5%
SMILES = C[C@@H]1O[C@@H](O[C@@H]2[C@@H](O)[C@H](OCCc3ccc(O)c(O)c3)O[C@H](COC(=O)/C=C/c3ccc(O)c(O)c3)[C@H]2O)[C@H](O)[C@H](O)[C@H]1O; result = -15%
SMILES = CC(C)c1cccc(=O)c(O)c1; result = 3%
SMILES = Cn1c(Cc2ccccc2)nc(=O)c2ccccc21; result = -26%
SMILES = O=C(O)[C@H]1CCCN1; result = -11%
SMILES = CC(C)=CC/C=C(\C)[C@H]1CC[C@]2(C)[C@@H]1[C@H](O)C[C@@H]1[C@@]3(C)C[C@@H](O)[C@H](O[C@@H]4O[C@H](CO)[C@@H](O)[C@H](O)[C@H]4O[C@@H]4O[C@H](CO)[C@@H](O)[C@H](O)[C@H]4O)C(C)(C)[C@@H]3CC[C@]12C; result = -12%
SMILES = COc1cc(O)cc2c1C(=O)C[C@@H](c1ccccc1)O2; result = -32%
SMILES = CC(C)C[C@H](NC(=O)CNC(=O)c1cc(Cl)ccc1Cl)B1OC(=O)C(CC(=O)O)(CC(=O)O)O1; result = -6%

Sample 2 — read-out: enzyme activity; action: inhibitor; tested at: 0.5 µM; relative to: control; endpoint: remaining activity
Target: Glycogen synthase kinase-3 alpha (GSK3A, Homo sapiens, UniProt P49840)
Chain of UniProt P49840 (whole entry, looked up): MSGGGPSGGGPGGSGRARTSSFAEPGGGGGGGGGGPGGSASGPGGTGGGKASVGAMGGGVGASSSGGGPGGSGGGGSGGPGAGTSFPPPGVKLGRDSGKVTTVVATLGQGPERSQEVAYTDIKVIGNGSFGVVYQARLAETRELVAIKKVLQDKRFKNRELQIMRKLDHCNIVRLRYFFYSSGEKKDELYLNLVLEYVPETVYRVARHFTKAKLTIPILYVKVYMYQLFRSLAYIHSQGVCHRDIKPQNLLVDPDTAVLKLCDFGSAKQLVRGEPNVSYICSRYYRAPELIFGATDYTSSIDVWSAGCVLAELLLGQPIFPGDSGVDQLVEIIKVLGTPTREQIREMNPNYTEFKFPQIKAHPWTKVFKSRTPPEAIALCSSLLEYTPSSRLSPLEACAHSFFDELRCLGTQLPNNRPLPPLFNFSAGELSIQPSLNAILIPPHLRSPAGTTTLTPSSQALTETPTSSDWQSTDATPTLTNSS
Structure (SMILES) = COc1ccc2c(c1)c(C1=C(c3c[nH]c4ccccc34)C(=O)NC1=O)cn2CCCN(C)C; result = 14%
Structure (SMILES) = O=c1cc(N2CCOCC2)oc2c(-c3ccccc3)cccc12; result = 93.5%
Structure (SMILES) = O=C1NC(=O)c2c1c1c3ccccc3[nH]c1c1[nH]c3cc(Br)ccc3c21; result = 33.9%
Structure (SMILES) = CCCNC(=O)Nc1ccc(Oc2ncnc3cc(OC)c(OC)cc23)cc1Cl; result = 98.8%
Structure (SMILES) = CN1CCN(c2ccc3nc(-c4c(N)c5c(F)cccc5[nH]c4=O)[nH]c3c2)CC1; result = 100%
Structure (SMILES) = O=C1NC(=O)c2c1c1c3ccccc3[nH]c1n1cncc21; result = 10.4%
Structure (SMILES) = Oc1cccc(-c2nc(N3CCOCC3)c3oc4ncccc4c3n2)c1; result = 90.2%
Structure (SMILES) = c1ccc(-c2n[nH]c3c2oc2ccccc23)cc1; result = 91.4%
Structure (SMILES) = Cc1ccc(S(=O)(=O)/C=C/C#N)cc1; result = 106%
Structure (SMILES) = N#Cc1cnc2cnc(NCc3cccnc3)cc2c1Nc1ccc(F)c(Cl)c1; result = 88.5%
Structure (SMILES) = O=C1Nc2ccccc2/C1=C\c1c(Cl)[nH]c2ccccc12; result = 99.3%
Structure (SMILES) = CN(C)S(=O)(=O)c1ccc2c(c1)/C(=C/c1cc3c([nH]1)CCCC3)C(=O)N2; result = 99.4%
Structure (SMILES) = CCCCc1c(-c2ccc(OC)cc2)[nH]c2nccnc12; result = 55.8%
Structure (SMILES) = Cc1cc(Nc2cc(N3CCN(C)CC3)nc(Sc3ccc(NC(=O)C4CC4)cc3)n2)[nH]n1; result = 101%
Structure (SMILES) = c1ccc2c(-c3ccncc3)c[nH]c2c1; result = 103%
Structure (SMILES) = COc1ccc(COc2ccc(Cc3cnc(N)nc3N)cc2OC)cc1; result = 108%
Structure (SMILES) = COc1cccc(-c2cc(=O)c3ccccc3o2)c1N; result = 97%
Structure (SMILES) = O=Nc1c(-c2c(O)[nH]c3cc(Br)ccc23)[nH]c2ccccc12; result = 3.6%

Sample 3 — read-out: cell-free assay; method: competition with immobilised ligand; tested at: 1 µM; endpoint: remaining binding
SMILES: COc1ccc2c(O[C@@H]3C[C@H]4C(=O)N[C@]5(C(=O)O)CC5/C=C\CCCCC[C@H](NC(=O)OC5CCCC5)C(=O)N4C3)cc(-c3csc(NC(=O)C(C)C)n3)nc2c1C (stereo partly shown)
target = Tyrosine-protein kinase ABL1, phosphorylated (ABL1, Homo sapiens, UniProt P00519, E255K); result = 80%
target = TGF-beta receptor type-1 (TGFBR1, Homo sapiens, UniProt P36897); result = 100%
target = Protein kinase C theta type (PRKCQ, Homo sapiens, UniProt Q04759); result = 100%
target = STE20-like serine/threonine-protein kinase (SLK, Homo sapiens, UniProt Q9H2G2); result = 100%
target = Insulin receptor (INSR, Homo sapiens, UniProt P06213); result = 94%
target = Serine/threonine-protein kinase tousled-like 2 (TLK2, Homo sapiens, UniProt Q86UE8); result = 100%
target = Atypical kinase COQ8A, mitochondrial (COQ8A, Homo sapiens, UniProt Q8NI60); result = 100%
target = Activin receptor type-1-like (ACVRL1, Homo sapiens, UniProt P37023); result = 97%
target = Mitogen-activated protein kinase 1 (MAPK1, Homo sapiens, UniProt P28482); result = 89%
target = Mitogen-activated protein kinase 8 (MAPK8, Homo sapiens, UniProt P45983); result = 81%
target = Phosphatidylinositol 4-phosphate 5-kinase type-1 gamma (PIP5K1C, Homo sapiens, UniProt O60331); result = 100%
target = Ribosomal protein S6 kinase alpha-6, N-terminal kinase domain (RPS6KA6, Homo sapiens, UniProt Q9UK32); result = 92%
target = Calcium/calmodulin-dependent protein kinase type 1G (CAMK1G, Homo sapiens, UniProt Q96NX5); result = 98%
target = Serine/threonine-protein kinase BRSK2 (BRSK2, Homo sapiens, UniProt Q8IWQ3); result = 100%
target = Serine/threonine-protein kinase PLK4 (PLK4, Homo sapiens, UniProt O00444); result = 77%

Sample 4 — tested at: 5 µM; endpoint: remaining activity
Structure (SMILES): O=C(Nc1cnn(-c2csc(C(=O)NC3COC3)c2)c1)Nc1c(F)cccc1Cl
target = Beta-adrenergic receptor kinase 1 (GRK2, Homo sapiens, UniProt P25098); assay = enzyme activity; how to read = relative to: untreated control; result = 104%
target = Ribosomal protein S6 kinase beta-1 (RPS6KB1, Homo sapiens, UniProt P23443); assay = enzyme activity; how to read = relative to: untreated control; result = 97.6%
target = Serine/threonine-protein kinase PLK3 (PLK3, Homo sapiens, UniProt Q9H4B4); assay = enzyme activity; how to read = relative to: untreated control; result = 95.9%
target = Serine/threonine-protein kinase D1 (PRKD1, Homo sapiens, UniProt Q15139); assay = enzyme activity; how to read = relative to: untreated control; result = 88.7%
target = MAP kinase-interacting serine/threonine-protein kinase 2 (MKNK2, Homo sapiens, UniProt Q9HBH9); assay = enzyme activity; how to read = relative to: untreated control; result = 90.7%
target = Protein kinase C delta type (PRKCD, Homo sapiens, UniProt Q05655); assay = enzyme activity; how to read = relative to: untreated control; result = 100%
target = Serine/threonine-protein kinase MARK1 (MARK1, Homo sapiens, UniProt Q9P0L2); assay = enzyme activity; how to read = relative to: untreated control; result = 108%
target = Serine/threonine-protein kinase 10 (STK10, Homo sapiens, UniProt O94804); assay = enzyme activity; how to read = relative to: untreated control; result = 87.5%
target = SNF-related serine/threonine-protein kinase (SNRK, Homo sapiens, UniProt Q9NRH2); assay = enzyme activity; how to read = relative to: untreated control; result = 94.5%
target = cGMP-dependent protein kinase 2 (PRKG2, Homo sapiens, UniProt Q13237); assay = enzyme activity; how to read = relative to: untreated control; result = 99.4%
target = Serine/threonine-protein kinase TAO2 (TAOK2, Homo sapiens, UniProt Q9UL54); assay = kinase activity, kinase panel profiling; result = 88.2%

Some of these lines once more (sample 2):
Structure (SMILES) = O=C1NC(=O)c2c1c1c3ccccc3[nH]c1n1cncc21; result = 10.4%
Structure (SMILES) = O=C1NC(=O)c2c1c1c3ccccc3[nH]c1c1[nH]c3cc(Br)ccc3c21; result = 33.9%
Structure (SMILES) = CCCCc1c(-c2ccc(OC)cc2)[nH]c2nccnc12; result = 55.8%
Structure (SMILES) = Cc1ccc(S(=O)(=O)/C=C/C#N)cc1; result = 106%
